Experimental data pooled from the literature.
Each line is one published result; not all experiments were run side by side. Values joined by “and” are separate records of one study, mostly repeats; a detail may differ. ± marks the error that the study gave.

Sequences of proteins named here, by UniProt entry; tags and fusion partners are left off.
UniProt P54098, whole entry: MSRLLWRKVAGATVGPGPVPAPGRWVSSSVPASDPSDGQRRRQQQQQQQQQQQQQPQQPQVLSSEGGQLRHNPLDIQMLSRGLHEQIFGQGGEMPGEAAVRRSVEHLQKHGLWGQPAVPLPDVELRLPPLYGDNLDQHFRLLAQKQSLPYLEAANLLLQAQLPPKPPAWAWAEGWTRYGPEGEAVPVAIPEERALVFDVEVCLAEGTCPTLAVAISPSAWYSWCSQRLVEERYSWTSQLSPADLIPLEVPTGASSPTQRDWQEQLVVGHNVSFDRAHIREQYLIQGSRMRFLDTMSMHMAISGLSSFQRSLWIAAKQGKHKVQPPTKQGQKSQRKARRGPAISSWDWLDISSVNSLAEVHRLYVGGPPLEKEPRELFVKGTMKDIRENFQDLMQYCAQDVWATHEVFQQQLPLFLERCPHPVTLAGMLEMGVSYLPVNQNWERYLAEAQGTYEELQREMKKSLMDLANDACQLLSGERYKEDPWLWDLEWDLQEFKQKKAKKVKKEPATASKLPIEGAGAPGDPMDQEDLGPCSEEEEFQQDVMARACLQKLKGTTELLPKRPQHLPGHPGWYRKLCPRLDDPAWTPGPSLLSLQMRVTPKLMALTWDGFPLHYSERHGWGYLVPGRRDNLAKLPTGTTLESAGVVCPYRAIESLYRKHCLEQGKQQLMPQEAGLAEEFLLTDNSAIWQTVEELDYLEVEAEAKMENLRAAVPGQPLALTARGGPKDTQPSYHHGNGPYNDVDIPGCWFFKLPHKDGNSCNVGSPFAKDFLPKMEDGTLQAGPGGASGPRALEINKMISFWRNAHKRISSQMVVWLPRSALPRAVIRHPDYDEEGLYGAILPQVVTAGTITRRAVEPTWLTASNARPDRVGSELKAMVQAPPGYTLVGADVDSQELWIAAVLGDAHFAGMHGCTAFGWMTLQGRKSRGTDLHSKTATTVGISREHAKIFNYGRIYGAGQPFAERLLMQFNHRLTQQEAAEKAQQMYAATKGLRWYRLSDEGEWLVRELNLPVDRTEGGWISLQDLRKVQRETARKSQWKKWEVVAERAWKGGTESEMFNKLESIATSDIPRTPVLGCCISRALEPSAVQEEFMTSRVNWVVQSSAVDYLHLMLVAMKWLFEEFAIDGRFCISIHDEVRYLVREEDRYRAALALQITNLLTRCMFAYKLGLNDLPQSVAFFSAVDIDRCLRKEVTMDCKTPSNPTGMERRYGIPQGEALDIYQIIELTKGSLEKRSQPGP
UniProt Q16539, whole entry: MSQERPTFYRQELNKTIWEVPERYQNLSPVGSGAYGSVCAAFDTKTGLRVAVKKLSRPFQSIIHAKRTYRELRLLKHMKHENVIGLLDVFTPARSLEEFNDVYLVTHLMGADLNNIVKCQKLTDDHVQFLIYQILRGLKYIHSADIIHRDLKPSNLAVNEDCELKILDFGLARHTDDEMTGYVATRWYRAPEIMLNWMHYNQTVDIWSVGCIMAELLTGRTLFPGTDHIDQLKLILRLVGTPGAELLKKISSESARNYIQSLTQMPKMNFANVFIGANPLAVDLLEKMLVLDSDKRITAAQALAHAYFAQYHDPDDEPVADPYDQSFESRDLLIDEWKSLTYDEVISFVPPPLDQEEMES

Compound	target or system	assay	test system	setting	how to read	measurement	value
CC/C=C\C/C=C\CCC/C=C/C=C/C=C\CCCC(=O)O	DNA polymerase subunit gamma-1 (POLG, Homo sapiens, UniProt P54098)	enzyme activity, inhibitor				IC50	11 ± 0.7 µM
CCCOc1ncnc2scc(C(=O)NCc3ccc(CNCc4ccccc4)cc3)c12	human red blood cells	hemolysis		1 h, 37 °C, estimated, weak activity		EC50	> 100 µM
CC(C)C[C@H](NC(=O)[C@H](C)NC(=O)[C@H](CCCNC(=N)N)NC(=O)[C@H](CCCNC(=N)N)NC(=O)[C@H](CCCNC(=N)N)NC(=O)[C@H](C)NC(=O)[C@H](CC(C)C)NC(=O)[C@H](CCCNC(=N)N)NC(=O)[C@H](CO)NC(=O)[C@H](CCCCN)NC(=O)[C@H](CO)NC(=O)Cn1cc(COC(=O)[C@]2(C)C=C(C(=O)OC(C)(C)C)C(=O)CC2)nn1)C(=O)O	Mitogen-activated protein kinase 14 (MAPK14, Homo sapiens, UniProt Q16539)	enzyme activity, inhibitor, D-SENSOR kinase		0.003387 µM, unit not given	baseline: untreated	remaining activity	0.999 and 0.892 and 0.943
C=C1C(=O)OC2CC(C)C3=CC(=O)C(C)(CC(OC(=O)/C(C)=C\C)C12)O3 (stereo not shown)	HT-29	cytotoxicity				IC50	0.56 µM
C=C(C)C(=O)Nc1ccc(-c2c(-c3ccc(Oc4nccc(C)n4)c(F)c3)c3c(N)ncnc3n2C)cc1	MFM-223	cell growth, CellTiter-Glo		120 h, unit not given	baseline: untreated growth rate, higher = stronger inhibition	area over GR curve	0.834
NS(=O)(=O)c1nnc(NC(=O)CC2C3CC4CC(C3)CC2C4)s1 (stereo not shown)			mouse liver microsomes			half-life	> 2 h
CCCCCCCCNCc1ccc(CNC(=O)c2csc3ncnc(OCc4ccc(N=[N+]=[N-])cc4)c23)cc1	human red blood cells			100 µM		hemolysis	~6%
CCOC(=O)c1c(-c2ccc(Cl)cc2Cl)n(-c2nc(-c3ccc(Cl)cc3)c3c(NC(=O)c4ccccc4)nnc-3[nH]2)[nH]c1=O	UO-31	SRB		10 µM		cell growth	17.3%
[2H]C(C)(CO[C@H]1CC[C@H](CN2CCN(c3ccc4c(c3F)n(C)c(=O)n4C3CCC(=O)NC3=O)CC2)CC1)NS(=O)(=O)c1ccc(Nc2ncc(C(F)(F)F)c([C@H]3CC[C@@](C)(O)CC3)n2)c(C)c1 (stereo partly shown)				pH 7.4		logD	4.9 , 131
O=C(NCc1ccco1)C1CN(c2cc(-c3cc(F)cc(F)c3)n[nH]c2=O)C1	A549, HCT116, HCT116 p53, U2OS	cytotoxicity, MTS				IC50	> 36 µM
NS(=O)(=O)c1nnc(NC(=O)C2C3CC4CC(C3)CC2C4)s1 (stereo not shown)			PBS	pH 7.4		kinetic solubility	166 µM
N#Cc1c(-c2ccc(Cl)cc2Cl)n(-c2nc(-c3ccc(Cl)cc3)c3c(NC(=O)c4ccccc4)nnc-3[nH]2)[nH]c1=O	UO-31	SRB		10 µM		cell growth	24.5%
Cc1ccc(S(=O)(=O)Nc2ccccc2C(=O)Nc2nc(-c3ccccc3)cs2)cc1			PBS pH 7.4	10 mM DMSO stock		kinetic solubility	< 1 µg/mL
CCOC(=O)C1=C(C)N(c2cccc(C(F)(F)F)c2)C(=O)N(CC(=O)N(C)C)[C@@H]1c1ccc(C#N)cc1			rat hepatocytes			Fmax	13%
CN1C(=O)CCc2cc(CNC(C)(C)[C@@H](O)c3ccccc3)ccc21			male CD-1 mouse, brain	subcutaneous, 10 mg/kg		Cmax	2960 ng/g
CCCCCCCCNCc1ccc(CNC(=O)c2csc3ncnc(OC)c23)cc1	human red blood cells	hemolysis		1 h, 37 °C, estimated, weak activity		EC50	> 100 µM
